Published values gathered from unrelated publications.
Cell line: HCC 2998

| SMILES | read-out | method | tested at | time | reference | endpoint | result |
| --- | --- | --- | --- | --- | --- | --- | --- |
| CC/C=C\C/C=C\C/C=C\C/C=C\C/C=C\C/C=C\CCC(=O)Nc1ccn(C2OC(CO)C(O)C2(F)F)c(=O)n1 (stereo not drawn) |  | NCI60 screen |  |  |  | TGI | 26700 nM |
| COc1cc(CNC(=O)C[C@H](C)CCC=C(C)C)ccc1OCc1cn(-c2ccc(F)cc2)nn1 |  | SRB | 10 µM | 48 h |  | growth percent | 94.9% |
| CC(Cc1ccc(Cl)cc1)=C(c1ccc(Cl)cc1)c1ccc(OCCN(C)C)cc1 | cell growth or viability | SRB |  |  |  | GI50 | 2030 nM |
| COc1ccc2c(c1)/C(=N\Nc1nnc3n1N=C(c1ccccc1)CS3)C(=O)N2 | cell growth or viability | SRB | 10 µM |  |  | inhibition | 12% |
| CC(=O)OC[C@H]1O[C@@H](Sc2sc(C(=O)c3ccc(Br)cc3)c(N)c2-c2nc3ccccc3s2)[C@H](OC(C)=O)[C@@H](OC(C)=O)[C@@H]1OC(C)=O |  | SRB | 10 µM | 48 h | untreated | growth | 85% |
| COc1cc(CNC(=O)C[C@H](C)CCC=C(C)C)ccc1OCc1cn(-c2cccc(Cl)c2)nn1 |  | SRB | 10 µM | 48 h |  | growth percent | 94.7% |
| O=C1Nc2ccccc2/C1=N\Nc1nnc2n1N=C(c1ccc(Cl)cc1)CS2 | cell growth or viability | SRB | 10 µM |  |  | inhibition | 13% |
| CC(=C(c1ccc(O)cc1)c1ccc(Cl)cc1)c1ccc(Cl)cc1 | cell growth or viability | SRB |  |  |  | GI50 | 750 nM |
| COc1cc(CNC(=O)C[C@H](C)CCC=C(C)C)ccc1OCc1cn(-c2ccc(Cl)cc2Cl)nn1 |  | SRB | 10 µM | 48 h |  | growth percent | 92.5% |

Excerpt of the above:
| SMILES | read-out | method | tested at | time | reference | endpoint | result |
| --- | --- | --- | --- | --- | --- | --- | --- |
| CC(=O)OC[C@H]1O[C@@H](Sc2sc(C(=O)c3ccc(Br)cc3)c(N)c2-c2nc3ccccc3s2)[C@H](OC(C)=O)[C@@H](OC(C)=O)[C@@H]1OC(C)=O |  | SRB | 10 µM | 48 h | untreated | growth | 85% |
